Measured values collected from several papers.
Lines come from different studies, so protocols differ.
MAPK8: Mitogen-activated protein kinase 8 (MAPK8, Homo sapiens, UniProt P45983)
Chain of UniProt P45983 (whole entry, looked up): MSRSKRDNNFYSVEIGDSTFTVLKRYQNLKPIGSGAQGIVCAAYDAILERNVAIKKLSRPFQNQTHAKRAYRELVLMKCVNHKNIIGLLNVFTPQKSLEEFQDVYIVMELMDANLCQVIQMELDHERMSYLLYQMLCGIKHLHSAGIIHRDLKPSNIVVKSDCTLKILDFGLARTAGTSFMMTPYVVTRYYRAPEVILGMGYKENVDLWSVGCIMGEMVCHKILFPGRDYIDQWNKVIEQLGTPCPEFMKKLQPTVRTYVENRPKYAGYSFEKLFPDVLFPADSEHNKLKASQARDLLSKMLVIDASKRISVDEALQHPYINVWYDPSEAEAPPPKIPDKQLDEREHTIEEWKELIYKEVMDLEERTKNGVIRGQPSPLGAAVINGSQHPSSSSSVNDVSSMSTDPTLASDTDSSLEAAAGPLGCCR
Chain of UniProt O75417 (whole entry, looked up): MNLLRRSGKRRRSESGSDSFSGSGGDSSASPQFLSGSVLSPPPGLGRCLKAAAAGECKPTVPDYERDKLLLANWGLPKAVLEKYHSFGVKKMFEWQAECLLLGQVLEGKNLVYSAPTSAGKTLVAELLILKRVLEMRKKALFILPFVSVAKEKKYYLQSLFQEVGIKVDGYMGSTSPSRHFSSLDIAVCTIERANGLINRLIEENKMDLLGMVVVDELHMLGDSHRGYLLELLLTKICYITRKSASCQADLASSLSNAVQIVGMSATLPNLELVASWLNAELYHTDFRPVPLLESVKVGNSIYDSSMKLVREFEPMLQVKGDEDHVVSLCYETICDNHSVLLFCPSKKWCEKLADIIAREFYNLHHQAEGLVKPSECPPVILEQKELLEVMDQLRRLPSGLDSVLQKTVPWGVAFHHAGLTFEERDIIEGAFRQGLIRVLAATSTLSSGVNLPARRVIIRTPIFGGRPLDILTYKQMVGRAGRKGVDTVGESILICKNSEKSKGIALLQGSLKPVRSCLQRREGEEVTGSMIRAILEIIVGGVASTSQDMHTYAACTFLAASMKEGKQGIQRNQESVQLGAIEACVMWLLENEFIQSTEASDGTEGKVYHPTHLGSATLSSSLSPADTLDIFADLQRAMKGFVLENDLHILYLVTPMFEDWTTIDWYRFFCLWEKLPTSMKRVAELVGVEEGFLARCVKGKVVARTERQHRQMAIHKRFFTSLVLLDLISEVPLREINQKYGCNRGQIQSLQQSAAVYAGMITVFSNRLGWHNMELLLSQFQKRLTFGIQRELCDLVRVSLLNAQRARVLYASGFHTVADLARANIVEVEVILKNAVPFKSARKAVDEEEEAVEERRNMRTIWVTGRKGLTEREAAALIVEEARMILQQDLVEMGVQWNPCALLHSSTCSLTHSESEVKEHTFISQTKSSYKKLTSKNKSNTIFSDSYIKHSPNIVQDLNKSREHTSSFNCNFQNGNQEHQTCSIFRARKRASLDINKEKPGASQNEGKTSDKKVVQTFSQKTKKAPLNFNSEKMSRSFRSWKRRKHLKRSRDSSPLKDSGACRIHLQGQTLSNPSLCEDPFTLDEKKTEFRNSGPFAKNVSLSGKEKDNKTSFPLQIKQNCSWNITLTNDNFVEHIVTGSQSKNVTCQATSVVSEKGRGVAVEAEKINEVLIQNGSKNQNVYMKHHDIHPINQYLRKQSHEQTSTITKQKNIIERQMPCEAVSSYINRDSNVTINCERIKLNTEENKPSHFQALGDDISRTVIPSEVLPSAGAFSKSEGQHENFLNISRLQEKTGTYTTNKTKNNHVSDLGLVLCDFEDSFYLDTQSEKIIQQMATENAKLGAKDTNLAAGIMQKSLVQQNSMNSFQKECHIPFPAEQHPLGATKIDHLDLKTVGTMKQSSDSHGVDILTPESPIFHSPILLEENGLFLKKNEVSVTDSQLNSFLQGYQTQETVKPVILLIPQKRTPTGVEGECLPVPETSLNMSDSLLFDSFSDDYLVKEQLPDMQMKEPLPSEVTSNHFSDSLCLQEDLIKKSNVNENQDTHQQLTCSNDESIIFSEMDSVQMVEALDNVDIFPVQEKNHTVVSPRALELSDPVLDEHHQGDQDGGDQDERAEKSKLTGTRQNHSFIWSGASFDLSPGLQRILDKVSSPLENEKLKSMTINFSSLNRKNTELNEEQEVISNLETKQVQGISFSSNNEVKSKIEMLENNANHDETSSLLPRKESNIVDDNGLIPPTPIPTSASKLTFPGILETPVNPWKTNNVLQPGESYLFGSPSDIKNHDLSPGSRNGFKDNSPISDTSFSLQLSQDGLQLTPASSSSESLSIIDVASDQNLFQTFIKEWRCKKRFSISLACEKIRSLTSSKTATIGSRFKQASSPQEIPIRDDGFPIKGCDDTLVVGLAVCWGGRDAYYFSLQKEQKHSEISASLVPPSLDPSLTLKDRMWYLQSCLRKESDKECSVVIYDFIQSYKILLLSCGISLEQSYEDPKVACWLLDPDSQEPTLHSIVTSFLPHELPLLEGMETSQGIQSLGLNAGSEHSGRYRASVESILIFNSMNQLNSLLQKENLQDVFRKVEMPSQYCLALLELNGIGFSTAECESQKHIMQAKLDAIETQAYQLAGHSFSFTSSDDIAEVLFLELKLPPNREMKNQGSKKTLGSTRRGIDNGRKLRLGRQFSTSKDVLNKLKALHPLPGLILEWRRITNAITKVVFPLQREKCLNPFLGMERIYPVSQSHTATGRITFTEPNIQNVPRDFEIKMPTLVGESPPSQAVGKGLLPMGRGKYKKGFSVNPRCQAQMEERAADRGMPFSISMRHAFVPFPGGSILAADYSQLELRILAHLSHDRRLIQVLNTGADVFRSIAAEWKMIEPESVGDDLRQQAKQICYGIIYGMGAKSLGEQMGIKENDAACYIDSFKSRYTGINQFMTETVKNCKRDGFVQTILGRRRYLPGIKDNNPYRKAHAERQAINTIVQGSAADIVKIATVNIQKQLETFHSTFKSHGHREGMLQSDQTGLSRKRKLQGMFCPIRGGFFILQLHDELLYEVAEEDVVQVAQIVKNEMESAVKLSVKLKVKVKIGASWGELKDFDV
Chain of UniProt Q9HB29 (whole entry, looked up): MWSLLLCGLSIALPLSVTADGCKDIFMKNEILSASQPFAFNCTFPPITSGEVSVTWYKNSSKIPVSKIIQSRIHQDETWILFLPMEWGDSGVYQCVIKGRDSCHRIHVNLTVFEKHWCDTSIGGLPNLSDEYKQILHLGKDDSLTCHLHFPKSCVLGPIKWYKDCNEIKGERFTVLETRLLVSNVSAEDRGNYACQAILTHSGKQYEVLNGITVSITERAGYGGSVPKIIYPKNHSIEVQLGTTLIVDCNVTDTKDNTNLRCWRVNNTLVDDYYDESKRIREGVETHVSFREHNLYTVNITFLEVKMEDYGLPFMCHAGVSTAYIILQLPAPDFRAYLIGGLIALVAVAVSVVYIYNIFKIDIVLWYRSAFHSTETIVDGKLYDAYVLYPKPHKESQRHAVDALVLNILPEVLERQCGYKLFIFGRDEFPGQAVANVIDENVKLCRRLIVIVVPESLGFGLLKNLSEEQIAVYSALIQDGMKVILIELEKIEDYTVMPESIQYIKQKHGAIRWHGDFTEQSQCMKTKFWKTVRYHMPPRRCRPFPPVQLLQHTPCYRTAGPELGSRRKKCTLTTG
Chain of UniProt Q9UKR3 (whole entry, looked up): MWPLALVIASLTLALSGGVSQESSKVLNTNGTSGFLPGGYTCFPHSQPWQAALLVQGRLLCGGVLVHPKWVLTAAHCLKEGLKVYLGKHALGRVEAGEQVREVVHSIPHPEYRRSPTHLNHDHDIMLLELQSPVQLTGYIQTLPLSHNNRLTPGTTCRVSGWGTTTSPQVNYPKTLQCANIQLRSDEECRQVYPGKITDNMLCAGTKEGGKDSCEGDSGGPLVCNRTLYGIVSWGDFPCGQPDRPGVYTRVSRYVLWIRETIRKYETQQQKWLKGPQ

| SMILES | target | assay | test system | setting | how to read | remaining activity |
| --- | --- | --- | --- | --- | --- | --- |
| COc1ccc(NC(=O)Nc2ccc3c(c2)C(=O)N(C(C)CO)CC(C)C(CN(C)Cc2ccc4c(c2)OCO4)O3)cc1 (stereo not drawn) | ABL1 (Homo sapiens, UniProt P00519, M351T) | kinase activity | – | 0.03 µM | reference: control | 108% |
| C[C@](C(=O)NC1CCOCC1)(c1cncnc1)N(C(=O)[C@H](F)Cl)c1ccc(OC(F)(F)Cl)cc1 | Kallikrein-13 (Homo sapiens, UniProt Q9UKR3) | enzyme activity, inhibitor | – | 10 µM | – | 104% |
| C=C1C[C@@]2(C(=O)OC)C=C(C(=O)Nc3cccc(C(=O)Nc4ccc(Nc5nccc(-c6cccnc6)n5)c(C)c4)c3)C(=O)[C@@H]1C2 | MAPK8 | kinase activity, inhibitor | – | 0.5487 µM, unit not given, together with: 10 mM glutathione | reference: no inhibitor | 0.247 |
| Cc1cnc2nc1Nc1cccc(c1)COC/C=C/COCc1cc(ccc1OCCN1CCOCC1)N2 | MET (Homo sapiens, UniProt P08581, Y1235D) | – | – | concentration not given | reference: untreated control | 100% |
| COC(=O)[C@@]1(C)C=C(C(=O)Nc2cccc(C(=O)Nc3ccc(Nc4nccc(-c5cccnc5)n4)c(C)c3)c2)C(=O)CC1 | MAPK8 | enzyme activity, inhibitor | – | 8.36e-05 µM, 6 h, unit not given, together with: GSH 10 mM pre-incubation | reference: vehicle | 1.02 |
| Cc1cc(C(=O)Nc2nc3cccc(C)c3n2[C@H]2CCCCN(C(=O)/C=C/CN(C)C)C2)ccn1 | CDC2-like kinase 1 (Trypanosoma brucei brucei, UniProt Q382U0) | kinase activity, ADP-Glo | – | 0.1562 µM | – | 40.6% |
| CC(C)[C@@H]1NC(=O)[C@H](Cc2ccccc2)NC(=O)CSC[C@@H](C(N)=O)NC(=O)[C@H](CCC(=O)O)NC(=O)[C@H](CO)NC(=O)[C@H](Cc2c[nH]c3cccc(Cl)c23)NC(=O)[C@H](C2CCCCC2)NC(=O)[C@H](C(C)C)NC(=O)[C@H](Cc2ccc(O)cc2)NC(=O)[C@H](CC(=O)O)NC(=O)[C@H](Cc2c[nH]c3ccccc23)NC(=O)[C@H](Cc2ccc(N)nc2)NC(=O)[C@H](Cc2c[nH]c3ccc(Cl)cc23)NC(=O)[C@H](CCC(=O)O)NC1=O | Interleukin-1 receptor-like 2 (IL1RL2, Homo sapiens, UniProt Q9HB29) | reporter gene (SEAP), inhibitor, HEK-Blue IL-36R reporter | HEK-Blue IL-36R cells | 11.11 µM, 6 h, together with: IL-36β 1 ng/mL | – | 36.9% |
| O=C=[N][Ru-4]123([n]4c5ccc(O)cc5c5c6c(c7cc(F)c[n+]1c7c54)C(=O)NC6=O)[S+]1CC[S+]2CC[S+]3CC1 (stereo not drawn) | EGFR (Homo sapiens, UniProt P00533) | enzyme activity | – | 100 nM, human enzyme, together with: 10 µM ATP | reference: untreated | 121% |
| COc1ccccc1-c1ccncc1C(=O)Nc1nnc(OCc2ccc(Cl)cc2)s1 | DNA polymerase theta, helicase domain (POLQ, Homo sapiens, UniProt O75417) | ATPase activity, ADP-Glo | – | 0.95 µM | reference: 0 µM cpd | 19% |

Some of these lines once more:
| SMILES | target | assay | test system | setting | how to read | remaining activity |
| --- | --- | --- | --- | --- | --- | --- |
| O=C=[N][Ru-4]123([n]4c5ccc(O)cc5c5c6c(c7cc(F)c[n+]1c7c54)C(=O)NC6=O)[S+]1CC[S+]2CC[S+]3CC1 (stereo not drawn) | EGFR (Homo sapiens, UniProt P00533) | enzyme activity | – | 100 nM, human enzyme, together with: 10 µM ATP | reference: untreated | 121% |
